Experimental data of several laboratories.
Numbered parts are unrelated; each lists some results of a single study. Several values in a cell are separate wells, animals, samples, runs or records.
Sequence of UniProt P41143 (whole entry, looked up): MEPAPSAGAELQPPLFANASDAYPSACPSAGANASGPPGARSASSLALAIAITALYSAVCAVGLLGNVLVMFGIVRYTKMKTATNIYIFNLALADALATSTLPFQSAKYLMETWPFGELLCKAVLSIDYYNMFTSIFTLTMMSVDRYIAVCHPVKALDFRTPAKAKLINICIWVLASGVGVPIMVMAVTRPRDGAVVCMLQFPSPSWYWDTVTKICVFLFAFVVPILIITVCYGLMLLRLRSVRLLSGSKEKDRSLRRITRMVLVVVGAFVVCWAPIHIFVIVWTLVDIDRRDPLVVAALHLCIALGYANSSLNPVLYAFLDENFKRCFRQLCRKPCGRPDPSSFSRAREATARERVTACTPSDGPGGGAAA
Sequence of UniProt P19784 (whole entry, looked up): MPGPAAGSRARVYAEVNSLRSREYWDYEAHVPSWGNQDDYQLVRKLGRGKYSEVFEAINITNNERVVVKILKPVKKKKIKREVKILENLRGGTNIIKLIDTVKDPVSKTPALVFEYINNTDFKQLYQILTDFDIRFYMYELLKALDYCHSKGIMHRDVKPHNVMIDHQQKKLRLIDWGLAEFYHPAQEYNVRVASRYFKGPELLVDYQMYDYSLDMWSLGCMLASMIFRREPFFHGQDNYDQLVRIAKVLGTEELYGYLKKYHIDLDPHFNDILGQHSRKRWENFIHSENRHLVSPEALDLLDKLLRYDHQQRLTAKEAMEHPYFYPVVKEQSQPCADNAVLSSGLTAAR
Sequence of UniProt P34947 (whole entry, looked up): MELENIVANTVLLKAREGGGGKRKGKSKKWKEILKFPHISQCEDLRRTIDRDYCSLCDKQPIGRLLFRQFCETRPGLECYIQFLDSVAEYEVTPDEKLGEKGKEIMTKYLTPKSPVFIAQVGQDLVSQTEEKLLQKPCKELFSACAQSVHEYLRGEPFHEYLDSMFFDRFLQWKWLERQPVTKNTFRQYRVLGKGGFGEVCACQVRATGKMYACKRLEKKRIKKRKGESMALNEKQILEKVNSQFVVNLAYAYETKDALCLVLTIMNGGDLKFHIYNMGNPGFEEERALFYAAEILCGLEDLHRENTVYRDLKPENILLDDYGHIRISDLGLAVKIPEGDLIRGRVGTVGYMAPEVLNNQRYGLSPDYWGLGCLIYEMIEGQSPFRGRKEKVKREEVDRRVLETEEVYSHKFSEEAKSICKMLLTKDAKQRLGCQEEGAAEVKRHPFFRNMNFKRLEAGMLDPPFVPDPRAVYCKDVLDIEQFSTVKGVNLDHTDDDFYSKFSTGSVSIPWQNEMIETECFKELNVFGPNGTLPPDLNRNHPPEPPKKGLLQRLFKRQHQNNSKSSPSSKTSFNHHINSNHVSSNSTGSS
Sequence of UniProt Q9Y2U5 (whole entry, looked up): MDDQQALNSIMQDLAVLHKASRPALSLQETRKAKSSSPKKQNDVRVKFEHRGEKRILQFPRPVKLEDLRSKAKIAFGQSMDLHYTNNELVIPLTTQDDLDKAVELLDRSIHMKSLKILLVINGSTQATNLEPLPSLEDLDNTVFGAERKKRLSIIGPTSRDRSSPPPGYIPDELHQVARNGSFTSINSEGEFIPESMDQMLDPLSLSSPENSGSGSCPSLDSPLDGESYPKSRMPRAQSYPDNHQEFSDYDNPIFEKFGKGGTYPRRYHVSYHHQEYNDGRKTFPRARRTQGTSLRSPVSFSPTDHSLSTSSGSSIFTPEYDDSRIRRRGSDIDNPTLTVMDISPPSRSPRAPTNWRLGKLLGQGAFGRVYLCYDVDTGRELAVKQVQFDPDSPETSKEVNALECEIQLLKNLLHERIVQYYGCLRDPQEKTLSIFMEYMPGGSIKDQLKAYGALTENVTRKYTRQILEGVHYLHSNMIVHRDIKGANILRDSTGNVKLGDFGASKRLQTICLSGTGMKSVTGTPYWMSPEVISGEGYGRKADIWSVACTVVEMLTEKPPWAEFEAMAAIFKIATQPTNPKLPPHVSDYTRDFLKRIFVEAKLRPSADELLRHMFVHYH
Sequence of UniProt P35372 (whole entry, looked up): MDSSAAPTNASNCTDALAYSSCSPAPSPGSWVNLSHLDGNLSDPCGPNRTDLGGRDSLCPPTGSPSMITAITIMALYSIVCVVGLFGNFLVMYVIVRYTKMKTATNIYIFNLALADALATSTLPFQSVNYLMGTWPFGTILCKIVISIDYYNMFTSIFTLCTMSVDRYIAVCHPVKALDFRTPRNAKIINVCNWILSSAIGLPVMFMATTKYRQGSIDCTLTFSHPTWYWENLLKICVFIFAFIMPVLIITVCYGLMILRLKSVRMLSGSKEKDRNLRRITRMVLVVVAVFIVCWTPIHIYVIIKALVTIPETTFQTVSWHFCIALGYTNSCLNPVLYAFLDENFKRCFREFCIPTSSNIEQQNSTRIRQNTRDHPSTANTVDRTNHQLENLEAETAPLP
Sequence of UniProt P11229 (whole entry, looked up): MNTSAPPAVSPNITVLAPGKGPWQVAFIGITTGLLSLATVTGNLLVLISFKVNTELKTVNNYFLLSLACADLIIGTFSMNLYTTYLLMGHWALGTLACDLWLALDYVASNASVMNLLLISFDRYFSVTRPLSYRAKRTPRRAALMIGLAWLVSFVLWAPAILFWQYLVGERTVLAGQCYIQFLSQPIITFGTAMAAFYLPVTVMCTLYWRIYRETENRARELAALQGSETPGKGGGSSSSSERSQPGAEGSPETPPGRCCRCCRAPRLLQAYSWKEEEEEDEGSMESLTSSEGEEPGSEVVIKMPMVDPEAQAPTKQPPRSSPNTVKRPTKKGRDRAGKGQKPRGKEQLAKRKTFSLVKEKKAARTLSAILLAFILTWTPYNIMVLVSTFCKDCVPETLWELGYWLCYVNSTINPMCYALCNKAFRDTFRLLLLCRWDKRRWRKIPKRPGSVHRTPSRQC
Sequence of UniProt P50613 (whole entry, looked up): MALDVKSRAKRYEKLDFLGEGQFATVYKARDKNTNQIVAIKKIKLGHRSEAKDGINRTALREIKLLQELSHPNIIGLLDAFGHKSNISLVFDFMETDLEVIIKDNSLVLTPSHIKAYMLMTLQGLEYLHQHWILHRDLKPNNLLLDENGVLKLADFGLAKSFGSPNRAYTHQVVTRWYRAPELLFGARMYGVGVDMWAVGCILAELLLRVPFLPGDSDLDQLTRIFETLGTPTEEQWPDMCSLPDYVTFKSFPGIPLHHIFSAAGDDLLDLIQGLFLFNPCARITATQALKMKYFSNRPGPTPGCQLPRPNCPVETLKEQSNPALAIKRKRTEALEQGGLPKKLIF

Block 1 — cell line: mouse MPNST tumor cells; method: high-content immunofluorescence imaging; item: nuclear SOX9; tested at: 10 µM; time: 12 h; notes: mean of 2 replicates; relative to: DMSO control; direction: higher = more nuclear SOX9
SMILES	nuclear SOX9 intensity
Oc1ccc2c3c1O[C@H]1[C@@H](O)CC[C@@]4(O)[C@@H](C2)N(CC2CCC2)CC[C@]314	95.5 % of DMSO
C[N+]1([O-])C2CC(OC(=O)C(CO)c3ccccc3)CC1C1OC12 (stereo not drawn)	100 % of DMSO
CNC(C)(C)Cc1ccccc1	96.2 % of DMSO
O=C1CN(Cc2ccc(-c3ccc(F)c(CN4CCS(=O)(=O)CC4)n3)cc2)C(=O)N1C1CC1	92.2 % of DMSO
Cc1nnc2ccc(-c3cccc(C(F)(F)F)c3)nn12	120 % of DMSO
C[C@@H]1CC[C@H]2[C@@H](C)C(=O)O[C@@H]3O[C@@]4(C)CC[C@@H]1[C@]32OO4	99.3 % of DMSO and 96.2 % of DMSO
CN(C)C(=O)Oc1cc(OC(=O)N(C)C)cc(C(O)CNC(C)(C)C)c1 (stereo not drawn)	95.8 % of DMSO
C=C1C[C@@H]2[C@H](CC[C@]3(C)C(=O)CC[C@@H]23)[C@@]2(C)C=CC(=O)C=C12	68.6 % of DMSO and 80.5 % of DMSO

Block 2 — effect on: enzyme activity; action: inhibitor; tested at: 10 µM
Target: Calcium/calmodulin-dependent protein kinase type II subunit alpha (CAMK2A, Homo sapiens, UniProt Q9UQM7)
Sequence of UniProt Q9UQM7 (whole entry, looked up): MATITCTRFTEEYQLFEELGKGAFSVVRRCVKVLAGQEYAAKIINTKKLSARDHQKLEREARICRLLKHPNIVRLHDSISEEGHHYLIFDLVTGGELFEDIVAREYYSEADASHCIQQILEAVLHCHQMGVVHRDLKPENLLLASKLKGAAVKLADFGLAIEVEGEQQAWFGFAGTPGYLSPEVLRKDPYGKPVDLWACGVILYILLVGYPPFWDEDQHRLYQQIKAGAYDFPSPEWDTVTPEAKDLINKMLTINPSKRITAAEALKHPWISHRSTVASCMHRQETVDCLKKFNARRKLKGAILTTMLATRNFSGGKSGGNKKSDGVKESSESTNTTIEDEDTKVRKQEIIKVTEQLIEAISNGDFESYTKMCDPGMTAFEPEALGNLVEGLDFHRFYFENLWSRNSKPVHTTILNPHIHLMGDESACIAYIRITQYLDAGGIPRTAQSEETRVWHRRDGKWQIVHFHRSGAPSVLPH
Structure (SMILES)	inhibition
C[C@@H]1O[C@@H](O[C@H]2C[C@@H](O)[C@]3(CO)[C@H]4[C@H](O)C[C@]5(C)[C@@H](C6=CC(=O)OC6)CC[C@]5(O)[C@@H]4CC[C@]3(O)C2)[C@H](O)[C@H](O)[C@H]1O	-4%
O=C1C=C2C(=CCOC2O)O1 (stereo not drawn)	-5%
CC(=O)[C@H]1CC[C@H]2[C@@H]3C[C@H](O)[C@H]4C[C@@H](O)CC[C@]4(C)[C@H]3CC[C@]12C	-24%
C=Cc1cc(O)cc2ccc3c(C)c(O)ccc3c12	46%
CCCC(=O)c1c(O)c(CC2=C(O)C(C)(C)C(=O)C(C(C)=O)=C2O)c(O)c(Cc2c(O)c(CC3=C(O)C(C)(C)C(=O)C(C(C)=O)=C3O)c(O)c(C(=O)CCC)c2O)c1O	-59%
COc1ccc2c(c1O)-c1c(OC)c(OC)cc3c1[C@H](C2)N(C)CC3	0%
CC(C)=CCOc1c2occc2cc2ccc(=O)oc12	7%
CC(C)[C@@H]1[C@H]2OC(=O)[C@@H]1[C@@H]1CC[C@@H]3CN(C)[C@H]2[C@@]31C	-32%

Block 3 — effect on: cell-free assay; tested at: 10 µM
Structure (SMILES): Cn1nc(C(F)(F)F)cc1-c1cnc(N2CCc3cc(S(=O)(=O)Nc4c(F)cc(Cl)cc4F)cc(N4CCCC4=O)c32)nc1
target	inhibition [%]
DRD5 (Homo sapiens, UniProt P21918)	42.5
OPRD1 (Homo sapiens, UniProt P41143)	28.7
CHRM1 (Homo sapiens, UniProt P11229)	-15.4
HTR2A (Homo sapiens, UniProt P28223)	8.54
CHRM3 (Homo sapiens, UniProt P20309)	7.26
OPRK1 (Homo sapiens, UniProt P41145)	14.6
OPRM1 (Homo sapiens, UniProt P35372)	9.44

Block 4 — cell line: A-375; tested at: 100 µM; time: 36 h
Compound	viability [%]
CCOC(=O)Nc1ccc(NCc2ccc(F)cc2)cc1N	118
C/C=C(\C)C(=O)N[C@@H](c1ccccc1)[C@@H](O)C(=O)O[C@H]1C[C@@]2(O)[C@@H](OC(=O)c3ccccc3)[C@@H]3[C@]4(OC(C)=O)CO[C@@H]4C[C@H](O)[C@@]3(C)C(=O)[C@H](OC(C)=O)C(=C1C)C2(C)C	27.6
CCC1(c2cccc(O)c2)CCCCN(C)C1 (stereo not drawn)	112
N[C@@H](Cc1ccc(N(CCCl)CCCl)cc1)C(=O)O	8.14
CCC(=O)O[C@H]1CC[C@H]2[C@@H]3CCC4=CC(=O)CC[C@]4(C)[C@H]3CC[C@]12C	-3.09
COc1ccc(OC)c([C@@H](O)[C@H](C)N)c1	115
CCCCCCC(=O)O[C@H]1CC[C@H]2[C@@H]3CCC4=CC(=O)CC[C@]4(C)[C@H]3CC[C@]12C	0.851

Block 5 — effect on: enzyme activity; action: inhibitor; tested at: 0.5 µM; relative to: control
Structure (SMILES): O=C1NC(=O)c2c1c1c3ccccc3n3c1c1c2c2ccccc2n1[C@H]1CC[C@@H]3O1
target	remaining activity
PTK2B (Homo sapiens, UniProt Q14289)	41.5%
MAPK10 (Homo sapiens, UniProt P53779)	138%
CAMK1D (Homo sapiens, UniProt Q8IU85)	33.6%
PRKD1 (Homo sapiens, UniProt Q15139)	1.89%
GRK5 (Homo sapiens, UniProt P34947)	88.7%
EGFR (Homo sapiens, UniProt P00533)	78.3%
CDK7 (Homo sapiens, UniProt P50613)	80.4%
DYRK4 (Homo sapiens, UniProt Q9NR20)	87.8%
PKN2 (Homo sapiens, UniProt Q16513)	15.9%
BRSK1 (Homo sapiens, UniProt Q8TDC3)	14.8%
ROS1 (Homo sapiens, UniProt P08922)	1.6%
DMPK (Homo sapiens, UniProt Q09013)	98.8%
RET (Homo sapiens, UniProt P07949)	3.21%
CAMK1G (Homo sapiens, UniProt Q96NX5)	56.5%
Cyclin-dependent kinase 2, with cyclin A (CDK2, Homo sapiens, UniProt P24941)	15.6%
NEK9 (Homo sapiens, UniProt Q8TD19)	23.4%
ROCK2 (Homo sapiens, UniProt O75116)	73.7%
SLK (Homo sapiens, UniProt Q9H2G2)	26%
MAP3K8 (Homo sapiens, UniProt P41279)	94.6%
MAP3K2 (Homo sapiens, UniProt Q9Y2U5)	14%
HIPK3 (Homo sapiens, UniProt Q9H422)	49.9%
CSNK2A2 (Homo sapiens, UniProt P19784)	4.47%
Aurora kinase A (AURKA, Homo sapiens, UniProt O14965)	22.3%
NTRK3 (Homo sapiens, UniProt Q16288)	1.41%

Excerpt of the above (block 5):
target	remaining activity
MAP3K2 (Homo sapiens, UniProt Q9Y2U5)	14%
BRSK1 (Homo sapiens, UniProt Q8TDC3)	14.8%
Aurora kinase A (AURKA, Homo sapiens, UniProt O14965)	22.3%
MAPK10 (Homo sapiens, UniProt P53779)	138%
ROCK2 (Homo sapiens, UniProt O75116)	73.7%
